Assay results pooled from the literature.
Every numbered part comes from another study and shows a few of its results, in no order.
UniProt O15197, sequence (whole entry, looked up): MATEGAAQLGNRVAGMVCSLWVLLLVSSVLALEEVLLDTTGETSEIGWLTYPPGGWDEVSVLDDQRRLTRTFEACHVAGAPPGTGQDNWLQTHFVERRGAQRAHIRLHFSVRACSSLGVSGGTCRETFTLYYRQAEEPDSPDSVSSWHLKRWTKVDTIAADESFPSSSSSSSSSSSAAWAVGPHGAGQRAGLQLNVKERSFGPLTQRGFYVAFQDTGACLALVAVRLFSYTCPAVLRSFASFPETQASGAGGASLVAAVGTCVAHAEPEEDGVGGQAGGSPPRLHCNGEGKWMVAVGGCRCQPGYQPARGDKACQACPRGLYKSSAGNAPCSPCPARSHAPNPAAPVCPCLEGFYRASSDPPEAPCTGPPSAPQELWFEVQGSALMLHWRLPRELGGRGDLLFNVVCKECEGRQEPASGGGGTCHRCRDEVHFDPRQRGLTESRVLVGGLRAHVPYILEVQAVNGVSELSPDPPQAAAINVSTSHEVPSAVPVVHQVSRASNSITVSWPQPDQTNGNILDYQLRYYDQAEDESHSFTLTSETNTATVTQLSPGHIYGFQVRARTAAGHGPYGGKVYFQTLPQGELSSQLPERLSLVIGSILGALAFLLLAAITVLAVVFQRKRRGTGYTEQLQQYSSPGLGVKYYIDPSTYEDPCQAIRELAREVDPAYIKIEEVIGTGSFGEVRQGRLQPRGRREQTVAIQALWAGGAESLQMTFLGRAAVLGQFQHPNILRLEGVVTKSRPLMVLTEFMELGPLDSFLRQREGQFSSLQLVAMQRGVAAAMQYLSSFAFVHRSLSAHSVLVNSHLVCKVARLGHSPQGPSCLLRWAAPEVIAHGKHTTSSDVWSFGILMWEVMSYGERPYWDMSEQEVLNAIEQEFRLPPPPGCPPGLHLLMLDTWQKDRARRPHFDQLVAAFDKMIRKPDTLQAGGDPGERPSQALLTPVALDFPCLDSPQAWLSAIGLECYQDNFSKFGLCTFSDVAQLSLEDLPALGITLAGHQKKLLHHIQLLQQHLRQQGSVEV
UniProt Q16659, sequence (whole entry, looked up): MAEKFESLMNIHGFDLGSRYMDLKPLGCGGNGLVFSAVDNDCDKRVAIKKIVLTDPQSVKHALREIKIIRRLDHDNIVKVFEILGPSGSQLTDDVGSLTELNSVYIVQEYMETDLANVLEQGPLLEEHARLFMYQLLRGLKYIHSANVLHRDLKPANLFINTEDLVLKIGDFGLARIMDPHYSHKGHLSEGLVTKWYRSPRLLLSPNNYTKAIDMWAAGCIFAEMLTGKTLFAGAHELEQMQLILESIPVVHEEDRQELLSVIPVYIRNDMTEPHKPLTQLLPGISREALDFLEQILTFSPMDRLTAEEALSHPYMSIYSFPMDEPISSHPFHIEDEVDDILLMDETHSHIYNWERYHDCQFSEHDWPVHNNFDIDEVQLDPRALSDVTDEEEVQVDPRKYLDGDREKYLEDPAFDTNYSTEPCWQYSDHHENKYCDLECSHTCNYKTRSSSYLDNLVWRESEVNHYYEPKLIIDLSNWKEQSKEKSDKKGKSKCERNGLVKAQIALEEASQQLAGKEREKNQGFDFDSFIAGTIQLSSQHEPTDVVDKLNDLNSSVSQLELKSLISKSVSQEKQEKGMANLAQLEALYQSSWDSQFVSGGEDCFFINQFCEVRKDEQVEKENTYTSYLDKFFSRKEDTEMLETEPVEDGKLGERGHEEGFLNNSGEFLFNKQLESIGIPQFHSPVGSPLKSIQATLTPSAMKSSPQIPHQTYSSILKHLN
UniProt O43683, sequence (whole entry, looked up): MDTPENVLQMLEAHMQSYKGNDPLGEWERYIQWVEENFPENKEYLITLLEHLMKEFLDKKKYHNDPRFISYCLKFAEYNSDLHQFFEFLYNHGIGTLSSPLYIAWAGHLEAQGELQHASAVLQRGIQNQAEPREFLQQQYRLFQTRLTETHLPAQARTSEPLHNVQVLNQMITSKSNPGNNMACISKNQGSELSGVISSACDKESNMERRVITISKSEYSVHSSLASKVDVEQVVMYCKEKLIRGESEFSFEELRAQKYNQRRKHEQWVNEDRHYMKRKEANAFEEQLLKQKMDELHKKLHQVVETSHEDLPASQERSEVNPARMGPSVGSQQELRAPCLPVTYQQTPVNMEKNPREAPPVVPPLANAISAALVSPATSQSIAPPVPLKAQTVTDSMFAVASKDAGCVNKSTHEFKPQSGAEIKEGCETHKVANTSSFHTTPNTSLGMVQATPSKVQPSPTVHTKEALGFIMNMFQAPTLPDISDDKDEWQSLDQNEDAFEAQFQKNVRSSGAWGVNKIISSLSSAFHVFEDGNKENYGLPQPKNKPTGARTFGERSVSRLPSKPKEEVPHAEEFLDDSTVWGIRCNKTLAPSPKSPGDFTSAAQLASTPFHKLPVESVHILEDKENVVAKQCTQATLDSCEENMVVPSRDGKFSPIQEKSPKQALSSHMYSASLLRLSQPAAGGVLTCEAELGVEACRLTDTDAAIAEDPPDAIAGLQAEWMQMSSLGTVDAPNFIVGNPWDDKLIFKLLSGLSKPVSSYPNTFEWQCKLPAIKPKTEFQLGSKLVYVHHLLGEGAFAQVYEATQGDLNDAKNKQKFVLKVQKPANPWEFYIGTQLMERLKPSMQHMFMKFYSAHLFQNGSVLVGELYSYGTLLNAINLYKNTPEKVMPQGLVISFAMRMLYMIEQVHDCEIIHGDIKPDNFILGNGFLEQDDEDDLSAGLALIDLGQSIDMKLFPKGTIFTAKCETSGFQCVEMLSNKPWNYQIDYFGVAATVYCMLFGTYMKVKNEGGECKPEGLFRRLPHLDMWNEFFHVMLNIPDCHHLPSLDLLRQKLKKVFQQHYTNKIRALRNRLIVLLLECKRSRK
UniProt Q9Y243, sequence (whole entry, looked up): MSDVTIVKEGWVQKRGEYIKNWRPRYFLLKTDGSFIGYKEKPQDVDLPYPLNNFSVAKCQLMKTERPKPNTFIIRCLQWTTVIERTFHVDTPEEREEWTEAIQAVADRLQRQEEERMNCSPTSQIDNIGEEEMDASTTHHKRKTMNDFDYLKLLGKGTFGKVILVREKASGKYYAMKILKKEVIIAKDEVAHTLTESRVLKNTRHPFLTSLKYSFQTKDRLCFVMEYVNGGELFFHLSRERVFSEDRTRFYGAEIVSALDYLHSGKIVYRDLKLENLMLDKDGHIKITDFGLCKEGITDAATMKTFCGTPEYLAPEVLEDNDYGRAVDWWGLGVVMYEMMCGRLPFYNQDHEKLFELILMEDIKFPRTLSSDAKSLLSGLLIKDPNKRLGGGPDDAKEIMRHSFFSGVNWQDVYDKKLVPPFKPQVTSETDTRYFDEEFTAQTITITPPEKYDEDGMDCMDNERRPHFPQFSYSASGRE
UniProt O75582, sequence (whole entry, looked up): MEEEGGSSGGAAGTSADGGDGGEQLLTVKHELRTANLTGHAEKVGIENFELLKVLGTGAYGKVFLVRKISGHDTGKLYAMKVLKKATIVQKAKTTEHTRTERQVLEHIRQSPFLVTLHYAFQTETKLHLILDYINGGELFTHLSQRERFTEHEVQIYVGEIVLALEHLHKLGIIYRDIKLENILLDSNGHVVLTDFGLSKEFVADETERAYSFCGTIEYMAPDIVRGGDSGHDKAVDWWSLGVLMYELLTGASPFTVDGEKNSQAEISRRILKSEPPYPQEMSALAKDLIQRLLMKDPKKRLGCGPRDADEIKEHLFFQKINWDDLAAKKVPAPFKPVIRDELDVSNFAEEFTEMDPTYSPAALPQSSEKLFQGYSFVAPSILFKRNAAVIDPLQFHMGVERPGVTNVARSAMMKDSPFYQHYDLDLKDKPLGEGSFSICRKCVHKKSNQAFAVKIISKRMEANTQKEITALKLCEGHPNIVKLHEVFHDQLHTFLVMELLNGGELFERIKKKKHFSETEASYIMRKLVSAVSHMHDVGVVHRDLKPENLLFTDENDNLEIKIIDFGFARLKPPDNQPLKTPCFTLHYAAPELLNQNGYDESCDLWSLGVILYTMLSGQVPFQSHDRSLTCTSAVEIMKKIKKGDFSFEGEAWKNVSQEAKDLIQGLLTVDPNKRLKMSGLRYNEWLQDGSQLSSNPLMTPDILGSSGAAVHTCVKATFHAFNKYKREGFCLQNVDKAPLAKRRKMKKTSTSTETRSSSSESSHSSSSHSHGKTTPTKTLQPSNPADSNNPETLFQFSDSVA
UniProt P53778, sequence (whole entry, looked up): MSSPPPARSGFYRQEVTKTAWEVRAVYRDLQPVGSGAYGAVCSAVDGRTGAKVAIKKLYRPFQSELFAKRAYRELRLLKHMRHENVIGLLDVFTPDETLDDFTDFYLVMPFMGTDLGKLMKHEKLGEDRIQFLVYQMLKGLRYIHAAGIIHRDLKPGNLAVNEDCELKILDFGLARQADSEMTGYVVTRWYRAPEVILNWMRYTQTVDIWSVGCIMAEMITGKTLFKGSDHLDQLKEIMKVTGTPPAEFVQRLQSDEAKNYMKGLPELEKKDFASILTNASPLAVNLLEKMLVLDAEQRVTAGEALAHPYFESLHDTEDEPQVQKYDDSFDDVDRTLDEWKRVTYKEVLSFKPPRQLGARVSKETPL
UniProt Q99640, sequence (whole entry, looked up): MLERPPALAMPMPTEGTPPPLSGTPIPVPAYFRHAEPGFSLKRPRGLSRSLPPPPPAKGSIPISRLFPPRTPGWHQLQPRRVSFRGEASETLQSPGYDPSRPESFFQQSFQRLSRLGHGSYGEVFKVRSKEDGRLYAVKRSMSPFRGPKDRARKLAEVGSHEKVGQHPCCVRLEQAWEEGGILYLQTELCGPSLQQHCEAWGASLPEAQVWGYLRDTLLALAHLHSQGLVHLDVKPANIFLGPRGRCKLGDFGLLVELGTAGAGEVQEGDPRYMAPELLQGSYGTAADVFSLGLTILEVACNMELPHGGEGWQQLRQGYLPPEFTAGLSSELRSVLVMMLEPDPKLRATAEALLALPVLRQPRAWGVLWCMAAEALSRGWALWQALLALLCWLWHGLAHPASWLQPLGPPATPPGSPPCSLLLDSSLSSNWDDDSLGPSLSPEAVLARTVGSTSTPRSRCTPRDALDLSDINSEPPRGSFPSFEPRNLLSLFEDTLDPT

Sample 1 — host: mouse; sample: microsomes or S9; tested at: 2 µM; time: 0.5 h
Compound	remaining compound
COCCN(C(C)=O)c1nc(C)c(C(=O)Nc2nnc(C(C)C)s2)s1	88.3%
COc1ccccc1-c1coc2cc(O)ccc2c1=O	74.3%
O=C1C2CC=CCC2C(O)=NN1c1cccc(F)c1 (centres unmarked)	> 99.9%
CCOc1cc(C(=O)Nc2[nH]nc(C)c2-c2ccc(OC)c(OC)c2)cc(OCC)c1OCC	0.896%
O=C(O)CN1C(=O)S/C(=C\C=C2\SCCN2CCCS(=O)(=O)O)C1=S	94.2%
Cc1ccc(S(=O)(=O)N2CCCC(C(=O)Nc3ccc4[nH]c(C5CCCO5)nc4c3)C2)s1 (centres unmarked)	31%
CCCC(=O)Nc1cc(C(=O)NC2CCCCC2)ccc1S(=O)(=O)c1ccc(Cl)cc1	101%
COc1ccc(-n2ccc3cc(NC(=O)N4CCOCC4)ccc32)cc1Cl	83.9%
N#Cc1ccc2nc(N3CCc4c(ncn4-c4ccccc4)C3)ccc2c1	4.83%
CCOCc1cc(-c2ccccc2)[nH]c(=O)c1C#N	30.1%
Cc1n[nH]c(-c2ccccc2)c1-c1nc2ccccc2n1Cc1ccccc1	2.23%
CC1(C)OC(=O)C2(Cc3ccccc3N3CCC(c4ccccc4)CC32)C(=O)O1 (centres unmarked)	0.239%
CC1CN(C(=O)C2CCC2)C(C)CN1C(=O)C1CCC1 (centres unmarked)	0.193%
CCN1C(=O)C2(CC(=O)Nc3c2cnn3-c2nc3ccccc3s2)c2cccc(C)c21 (centres unmarked)	0.0317%

Sample 2 — read-out: cell-free assay; technique: competition with immobilised ligand; tested at: 1 µM
SMILES: Cc1cc(NC(=O)c2cccc(S(F)(F)(F)(F)F)c2)cc(-n2ccn3nc(-c4cccnc4)cc23)c1
target	remaining binding [%]
Serine/threonine-protein kinase PAK 5 (PAK5, Homo sapiens, UniProt Q9P286)	100
Tyrosine-protein kinase Fes/Fps (FES, Homo sapiens, UniProt P07332)	100
Mitogen-activated protein kinase 6 (MAPK6, Homo sapiens, UniProt Q16659)	100
Mitotic checkpoint serine/threonine-protein kinase BUB1 (BUB1, Homo sapiens, UniProt O43683)	100
Phosphatidylinositol 4-kinase beta (PI4KB, Homo sapiens, UniProt Q9UBF8)	78.6
Ephrin type-B receptor 6 (EPHB6, Homo sapiens, UniProt O15197)	100
Membrane-associated tyrosine- and threonine-specific cdc2-inhibitory kinase (PKMYT1, Homo sapiens, UniProt Q99640)	100
Serine/threonine-protein kinase PLK3 (PLK3, Homo sapiens, UniProt Q9H4B4)	69.4
Casein kinase I isoform gamma-1 (CSNK1G1, Homo sapiens, UniProt Q9HCP0)	100
Ribosomal protein S6 kinase alpha-5, C-terminal kinase domain (RPS6KA5, Homo sapiens, UniProt O75582)	100
Serine/threonine-protein kinase PRP4 homolog (PRPF4B, Homo sapiens, UniProt Q13523)	99.7
Death-associated protein kinase 1 (DAPK1, Homo sapiens, UniProt P53355)	100
Serine/threonine-protein kinase 17B (STK17B, Homo sapiens, UniProt O94768)	100

Sample 3
SMILES: COc1cc(C(=O)N2CCC(N3CCN(C)CC3)CC2)ccc1Nc1ncc2c(n1)N(C)c1ccccc1C(=O)N2C
tested on	assay	test system	setting	inhibition
mouse NUAK1	probe labelling, KiNativ ATP probe	mouse brain lysate	0.1 µM	4.1%
mouse CaMK1α	probe labelling, KiNativ ADP probe	mouse brain lysate	0.1 µM, LYS1 site LVAIkCIAK	-1.8%
MARK3 and MARK4 (mouse)	probe labelling, KiNativ, measured: EVAIkIIDK peptide, LYS1 site	brain tissue lysate (mouse)	1 µM, with: ADP acyl-phosphate probe	-5%
SLK (mouse)	probe labelling, inhibitor, KiNativ ActivX ADP probe	mouse brain lysate	1 µM, Lys1 site peptide	4.6%
human PBMC	probe labeling, inhibitor, KiNativ profiling, measured: LTDFGLSkESIDHEKK	cell lysate	concentration not given, domain 1, activation loop site, with: ADP acyl-phosphate probe 0.1 µM	0.6%
mouse CaMK1δ	probe labelling, KiNativ ATP probe	mouse brain lysate	0.1 µM, LYS1 site LFAVkCIPK	-2.7%
FYN (mouse)	probe labelling, KiNativ ADP probe	mouse brain lysate	1 µM, LYS1 labelled site	10.1%
SGK3 (mouse)	probe labelling, KiNativ, measured: FYAVkVLQK peptide, LYS1 site	brain tissue lysate (mouse)	1 µM, with: ADP acyl-phosphate probe	-17.2%
MYLK	KiNativ ADP probe	human PBMC lysate	1 µM, LYS1 site	10.1%

Sample 4 — read-out: enzyme activity; action: inhibitor; tested at: 0.5 µM; relative to: control
SMILES: NC(=O)c1ccc(N(C(N)=O)c2c(F)cccc2F)nc1-c1ccc(F)cc1F
target	remaining activity [%]
MAP kinase-interacting serine/threonine-protein kinase 2 (MKNK2, Homo sapiens, UniProt Q9HBH9)	101
Casein kinase II subunit alpha (CSNK2A1, Homo sapiens, UniProt P68400)	111
Serine/threonine-protein kinase Chk1 (CHEK1, Homo sapiens, UniProt O14757)	89.2
Serine/threonine-protein kinase PLK2 (PLK2, Homo sapiens, UniProt Q9NYY3)	102
Serine/threonine-protein kinase WNK2 (WNK2, Homo sapiens, UniProt Q9Y3S1)	96.4
Ephrin type-A receptor 5 (EPHA5, Homo sapiens, UniProt P54756)	105
RAC-gamma serine/threonine-protein kinase (AKT3, Homo sapiens, UniProt Q9Y243)	86.2
Mitogen-activated protein kinase 12 (MAPK12, Homo sapiens, UniProt P53778)	92.1
Mast/stem cell growth factor receptor Kit (KIT, Homo sapiens, UniProt P10721)	97.7
Mitogen-activated protein kinase kinase kinase kinase 2 (MAP4K2, Homo sapiens, UniProt Q12851)	108
cGMP-dependent protein kinase 1 (PRKG1, Homo sapiens, UniProt Q13976)	88.1
